# Assay results gathered from unrelated publications.
# Compare with care: the assays were run in different laboratories. Several values in a cell are separate wells, animals, samples, runs or records. ± gives the spread as reported.
Structure (SMILES),cell line,assay,conditions,EC50
CC[C@H](C)[C@H](NC(=O)[C@H](CC(N)=O)NC(=O)[C@H](CCCCN)NC(=O)[C@H](Cc1ccccc1)NC(=O)[C@H](Cc1ccccc1)NC(=O)[C@H](Cc1c[nH]cn1)NC(=O)[C@@H](NC(=O)[C@@H](NC(=O)[C@@H]1CCCN1C(=O)[C@@H](N)CC(N)=O)C(C)C)C(C)C)C(=O)N[C@H](C(=O)N[C@H](C(=O)N[C@@H](C)C(=O)O)[C@@H](C)O)C(C)C,T cell clone Ob.1C3,"T cell proliferation, agonist, [3H]thymidine incorporation","72 h, peptide-pulsed APC, added: EBV-transformed B cells DR2/DQ6 as APC",> 50 µM
C[C@@H]1NC(=O)[C@@H](Cc2ccccc2)NC(=O)[C@@H]2CCCCNC(=O)c3cc(cc(c3)C(=O)N[C@H](Cc3ccc4ccccc4c3)C(=O)N[C@@H](CO)C(=O)N[C@@H](CC(N)=O)C(=O)N[C@H](Cc3ccc4ccccc4c3)C(=O)N[C@@H](c3ccccc3)C(=O)N2)C(=O)NC[C@@H](C(=O)N[C@@H](CCN)C(=O)N[C@H](CCCNC(=N)N)C(=O)N[C@@H](Cc2ccc(F)cc2)C(=O)N[C@H](C)C(N)=O)NC(=O)[C@H](CCCNC(=N)N)NC(=O)[C@@H](CCCNC(=N)N)NC1=O,H358,"cell viability, CellTiter-Glo","96 h, 10% FBS",12 ± 8 µM
CC(C)C[C@@H](/C=C/[C@H](Cc1ccccc1)C(=O)N1CCC[C@H]1C(=O)N[C@H](C(=O)NC1CC(C)(C)N([O])C(C)(C)C1)C(C)C)NC(=O)OC(C)(C)C,HT-1080,"protection from ferroptosis, PrestoBlue","24 h, added: erastin 10 µM",0.465 µM
CC(C)[C@H](NC(=O)CNC(=O)[C@H](Cc1c[nH]c2ccccc12)NC(=O)[C@@H]1CCCN1C(=O)[C@H](CC(=O)O)NC(=O)[C@H](CCC(N)=O)NC(=O)[C@H](CCC(=O)O)NC(=O)[C@@H](N)Cc1ccc(O)cc1)C(=O)N[C@@H](CCCCN)C(=O)N[C@@H](Cc1c[nH]c2ccccc12)C(=O)N[C@@H](Cc1c[nH]c2ccccc12)C(=O)N[C@@H](Cc1ccc(O)cc1)C(=O)NCC(=O)NCC(=O)NCC(=O)N[C@@H](CO)C(=O)N[C@@H](CCCCN)C(=O)N[C@@H](CCCCN)C(=O)N[C@@H](CCCCN)C(=O)N[C@@H](CSC1CC(=O)N(CCC(=O)NCCCC[C@H](NC(=O)CNC(=O)[C@H](CCCCNC(=O)CCN2C(=O)CC(SC[C@H](NC(=O)[C@H](CCCCN)NC(=O)[C@H](CCCCN)NC(=O)[C@H](CCCCN)NC(=O)[C@H](CO)NC(=O)CNC(=O)CNC(=O)CNC(=O)[C@H](Cc3ccc(O)cc3)NC(=O)[C@H](Cc3c[nH]c4ccccc34)NC(=O)[C@H](Cc3c[nH]c4ccccc34)NC(=O)[C@H](CCCCN)NC(=O)[C@@H](NC(=O)CNC(=O)[C@H](Cc3c[nH]c4ccccc34)NC(=O)[C@@H]3CCCN3C(=O)[C@H](CC(=O)O)NC(=O)[C@H](CCC(N)=O)NC(=O)[C@H](CCC(=O)O)NC(=O)[C@@H](N)Cc3ccc(O)cc3)C(C)C)C(N)=O)C2=O)NC(=O)CNC(=O)[C@H](CCCCNC(=O)CCN2C(=O)CC(SC[C@H](NC(=O)[C@H](CCCCN)NC(=O)[C@H](CCCCN)NC(=O)[C@H](CCCCN)NC(=O)[C@H](CO)NC(=O)CNC(=O)CNC(=O)CNC(=O)[C@H](Cc3ccc(O)cc3)NC(=O)[C@H](Cc3c[nH]c4ccccc34)NC(=O)[C@H](Cc3c[nH]c4ccccc34)NC(=O)[C@H](CCCCN)NC(=O)[C@@H](NC(=O)CNC(=O)[C@H](Cc3c[nH]c4ccccc34)NC(=O)[C@@H]3CCCN3C(=O)[C@H](CC(=O)O)NC(=O)[C@H](CCC(N)=O)NC(=O)[C@H](CCC(=O)O)NC(=O)[C@@H](N)Cc3ccc(O)cc3)C(C)C)C(N)=O)C2=O)NC(=O)CNC(=O)[C@H](CCCCNC(=O)CCN2C(=O)CC(SC[C@H](NC(=O)[C@H](CCCCN)NC(=O)[C@H](CCCCN)NC(=O)[C@H](CCCCN)NC(=O)[C@H](CO)NC(=O)CNC(=O)CNC(=O)CNC(=O)[C@H](Cc3ccc(O)cc3)NC(=O)[C@H](Cc3c[nH]c4ccccc34)NC(=O)[C@H](Cc3c[nH]c4ccccc34)NC(=O)[C@H](CCCCN)NC(=O)[C@@H](NC(=O)CNC(=O)[C@H](Cc3c[nH]c4ccccc34)NC(=O)[C@@H]3CCCN3C(=O)[C@H](CC(=O)O)NC(=O)[C@H](CCC(N)=O)NC(=O)[C@H](CCC(=O)O)NC(=O)[C@@H](N)Cc3ccc(O)cc3)C(C)C)C(N)=O)C2=O)NC(=O)CNC(=O)CCCC[C@@H]2SC[C@@H]3NC(=O)N[C@@H]32)C(N)=O)C1=O)C(N)=O (some centres unmarked),M2 macrophages,"cell viability, propidium iodide staining",2 h,1.12 µM
CCCCCCCC(=O)NC(C)(C)C(=O)NCC(=O)N[C@H](C(=O)NC(C)(C)C(=O)NCC(=O)N[C@H](C(=O)N[C@H](CO)CC(C)C)[C@@H](C)CC)C(C)C,HepG2,"cytotoxicity, MTS",48 h,> 25 µM
F[P-](F)(F)(F)(F)F.F[P-](F)(F)(F)(F)F.[Ru+2].c1ccc(-c2ccccn2)nc1.c1ccc(-c2ccccn2)nc1.c1csc(-c2ccc(-c3ccc(-c4cc5cccnc5c5ncccc45)s3)s2)c1,HL-60,"cell viability, resazurin","16 h drug-to-light interval, added: red light 625 nm, 100 J/cm2",~2 µM and 2.2 µM
Cc1nc(C(=O)N[C@@H](CCCNC(=N)N)C(=O)NCC(=O)N[C@@H](CC(=O)O)C(=O)N[C@@H](CO)C(=O)NC2CC(C)(C)N([O])C(C)(C)C2)cc2c1[nH]c1ccccc12,PC-12,"cytoprotection, MTT","1 h pretreatment, added: 2 mM sodium nitroprusside 2 h",61.5 ± 3.7 µM
F[P-](F)(F)(F)(F)F.F[P-](F)(F)(F)(F)F.[Ru+2].c1ccc(-c2ccccn2)nc1.c1ccc(-c2ccccn2)nc1.c1csc(-c2cc3cccnc3c3ncccc23)c1,HL-60,cell viability,dark,not toxic
CCOC(=O)CCCCC[C@@H]1NC(=O)[C@H]2CCCCN2C(=O)[C@H]([C@@H](C)CC)NC(=O)[C@H](Cc2c[nH]c3ccccc23)NC1=O,human iPSC-derived NPCs,"inducer, ELISA, item: intracellular progranulin",18 h,9 ± 2 µM
C[C@@H](NC(=O)[C@H](Cc1ccccc1)NC(=O)[C@@H](CCCNC(=N)N)NC(=O)[C@H](CCCN)NC(=O)[C@@H]1CNC(=O)c2cc3cc(c2)C(=O)N[C@H](Cc2ccc4ccccc4c2)C(=O)N[C@@H]([C@@H](C)O)C(=O)N[C@@H](CC(N)=O)C(=O)N[C@H](Cc2ccc4ccccc4c2)C(=O)N[C@@H](c2ccccc2)C(=O)N[C@@H](CCCCNC3=O)C(=O)N[C@H](Cc2ccccc2)C(=O)N[C@@H](CCC(N)=O)C(=O)N[C@H](CCCNC(=N)N)C(=O)N[C@@H](CCCNC(=N)N)C(=O)N1)C(N)=O,H358,"cell viability, CellTiter-Glo","96 h, 10% FBS",23 ± 17 µM
CC[C@H](C)[C@H](NC(=O)CNC(=O)[C@H](CC(=O)O)NC(=O)[C@H](CCCNC(=N)N)NC(=O)[C@@H](NC(=O)[C@H](CC(N)=O)NC(=O)[C@H](CCC(N)=O)NC(=O)CNC(=O)[C@@H](NC(=O)[C@H](CCCCN)NC(=O)[C@H](CCC(=O)O)NC(=O)[C@@H](NC(=O)[C@H](CCCCN)NC(=O)[C@H](CCCCN)NC(=O)[C@H](Cc1ccccc1)NC(=O)[C@H](CC(C)C)NC(=O)[C@H](CCCCN)NC(=O)[C@H](Cc1c[nH]c2ccccc12)NC(=O)[C@@H](N)CCCCN)[C@@H](C)CC)C(C)C)[C@@H](C)CC)C(=O)N[C@H](C(=O)N[C@@H](CCCCN)C(=O)N[C@@H](C)C(=O)NCC(=O)N1CCC[C@H]1C(=O)N[C@@H](C)C(=O)N[C@H](C(=O)N[C@@H](C)C(=O)N[C@H](C(=O)N[C@H](C(=O)NCC(=O)N[C@@H](CCC(N)=O)C(=O)N[C@@H](C)C(=O)N[C@H](C(=O)N[C@@H](CCC(N)=O)C(=O)N[C@H](C(=O)N[C@@H](C)C(=O)N[C@@H](CCCCN)C(N)=O)[C@@H](C)CC)[C@@H](C)O)C(C)C)C(C)C)C(C)C)[C@@H](C)CC,sheep erythrocytes,turbidity,pH 7.5,≥ 12 µM

# Some of these lines once more:
Structure (SMILES),cell line,assay,conditions,EC50
CCOC(=O)CCCCC[C@@H]1NC(=O)[C@H]2CCCCN2C(=O)[C@H]([C@@H](C)CC)NC(=O)[C@H](Cc2c[nH]c3ccccc23)NC1=O,human iPSC-derived NPCs,"inducer, ELISA, item: intracellular progranulin",18 h,9 ± 2 µM
